{"data": "Experimental data from different studies", "note": "± gives the spread as reported."}
{"Structure (SMILES)": "CC(C)(C)C(=O)OCOP(=O)(O)C1CCCN(O)C1=O (stereo not drawn)", "test system": "cynomolgus monkey", "setting": "intravenous, dose not given", "scale": "relative to: monkey over mouse", "quantity": "half-life ratio", "result": 10}
{"Structure (SMILES)": "O=C(O)C1OC(OC2C(COS(=O)(=O)O)OC(OC3C(C(=O)O)OC(OC4C(COS(=O)(=O)O)OC(OC5C(C(=O)O)OC(OC6C(COS(=O)(=O)O)OC(OC7C(C(=O)O)OC(OC8C(COS(=O)(=O)O)OC(OC9C(C(=O)O)OC(OC%10C(COS(=O)(=O)O)OC(OC%11C(C(=O)O)OC(Oc%12ccc([N+](=O)[O-])cc%12)C(O)C%11O)C(NS(=O)(=O)O)C%10O)C(OS(=O)(=O)O)C9O)C(NS(=O)(=O)O)C8O)C(OS(=O)(=O)O)C7O)C(NS(=O)(=O)O)C6O)C(OS(=O)(=O)O)C5O)C(NS(=O)(=O)O)C4O)C(OS(=O)(=O)O)C3O)C(NS(=O)(=O)O)C2OS(=O)(=O)O)C(O)C(O)C1OC1OC(COS(=O)(=O)O)C(O)C(O)C1NS(=O)(=O)O (stereo not drawn)", "test system": "rats, serum", "setting": "intravenous, 3600 µg/kg/day for 7 days, day 8", "quantity": "albumin", "result": "3.62 ± 0.08 g/dL"}
{"Structure (SMILES)": "O=C([O-])CN1CCN(CC(=O)[O-])CCN(CC(=O)NCCc2ccc3c(c2)C2C=CCC2C(c2cc4c(cc2Br)OCO4)N3)CCN(CC(=O)[O-])CC1.[111In+3] (stereo not drawn)", "test system": "mouse, Hec50 endometrial tumour, heart", "setting": "2 h post injection", "quantity": "tissue uptake", "result": "0.25 ± 0.04 %ID/g"}
{"Structure (SMILES)": "CC(C)C[C@@H](NC(=O)[C@H](NC(=O)[C@H]1CCCN1)[C@H](C)O)C(=O)N[C@H](Cc1c[nH]cn1)C(=O)N[C@@H](C(=O)N[C@H](Cc1c[nH]cn1)C(=O)N[C@H](CC(N)=O)C(=O)N[C@H](CCCNC(=N)N)C(=O)N[C@H](CCCNC(=N)N)C(=O)N[C@H](CCCNC(=N)N)C(=O)N[C@H](CCCNC(=N)N)C(=O)N[C@H](CCCNC(=N)N)C(N)=O)[C@H](C)O", "test system": "beagle dog, plasma", "setting": "oral, 50 mg/kg, single dose", "quantity": "AUC(0-t)", "result": "19800 ng·h/mL"}
{"Structure (SMILES)": "CC(C)(O)c1ncc([S@](N)(=O)=NC(=O)Nc2c3c(cc4c2CCC4)CCC3)s1", "test system": "healthy human, fasted", "setting": "oral, 100 mg single dose, capsule formulation", "quantity": "Cmax", "result": "4820 ng/mL"}
{"Structure (SMILES)": "C=C(c1ccc(C(=O)O)c(F)c1)c1cc2c(cc1C)C(C)(C)C=CC2(C)C", "test system": "Sprague-Dawley rat, male, plasma", "setting": "oral, 100 mg/kg, 1 h, sesame oil vehicle", "quantity": "HDL level", "result": "99 ± 7 mg/dL"}
{"Structure (SMILES)": "CN=C(NC)NCCC[C@H](NC(=O)[C@@H]1CCCN1C(=O)[C@H](CCCNC(=N)N)NC(=O)CNC(=O)c1ccc2c(c1)C1(OC2=O)c2ccc(O)cc2Oc2cc(O)ccc21)C(=O)N[C@@H](C)C(=O)N[C@@H](C)C(=O)N[C@H](C(=O)N[C@@H](Cc1ccccc1)C(=O)N[C@@H](C)C(=O)N[C@@H](CCC(=O)O)C(=O)NCC(N)=O)[C@@H](C)O", "test system": "HeLa cytosolic lysate", "setting": "1 µM, 37 °C", "quantity": "t1/2", "result": "8 min"}
{"Structure (SMILES)": "Cc1nc(C)c(C=[N+]([O-])C(C)(C)C)nc1C", "test system": "healthy human, both sexes, serum", "setting": "oral, 1200 mg twice daily, 7 days", "quantity": "Cmin", "result": "524 ng/mL"}
{"Structure (SMILES)": "CN(C)C(CNC(=O)Nc1cc(C(F)(F)F)ccc1N1CCOCC1)c1ccncc1 (stereo not drawn)", "test system": "mouse, C57BL/6J", "setting": "intraperitoneal, 5 mg/kg, 2 h", "scale": "relative to: brain over plasma", "quantity": "tissue/plasma ratio", "result": "0.26 ± 0.07"}
{"Structure (SMILES)": "NS(=O)(=O)c1ccc(N2N=C(C(F)(F)F)CC2c2ccc(F)cc2F)cc1 (stereo not drawn)", "test system": "Beagle dog, male, arthritis model, plasma", "setting": "oral, 4 mg/kg, second dose day 12, day 21", "quantity": "plasma concentration", "result": "74 ± 85 ng/mL"}
{"Structure (SMILES)": "C[C@H](CN(C)Cc1ccccc1)NC(=O)c1ccc(-c2noc(C(F)(F)[18F])n2)cc1", "assay": "PET", "test system": "Sprague-Dawley rat, female, hippocampus and cerebellum", "setting": "intravenous, 10 min", "scale": "relative to: hippocampus SUV over cerebellum SUV", "quantity": "hippocampus-to-cerebellum ratio", "result": "1.5 ± 0.59"}
{"Structure (SMILES)": "N#Cc1nc(N2CCOCC2)nc(N(Cc2ccc(F)cc2)CC2CCCNC2)n1 (stereo not drawn)", "test system": "CD-1 mouse female, brain", "setting": "intraperitoneal, 10 mg/kg", "quantity": "AUC brain", "result": "152 ng·h/g"}
{"Structure (SMILES)": "CC(C)NC(=O)N1CC=C(c2cc3c(Nc4ccc5scnc5c4)ncnc3s2)CC1", "test system": "BALB/c mouse, plasma", "setting": "oral, 10 mg/kg, 6 h", "quantity": "concentration", "result": "0.42 ng/mL"}
{"Structure (SMILES)": "N=C(N)NCCC[C@@H]1NC(=O)[C@H](CCCCNC(=O)CC[C@H](NC(=O)CC[C@H](NC(=O)CN2CCN(CC(=O)O)CCN(CC(=O)O)CCN(CC(=O)O)CC2)C(=O)N[C@@H](CCC(=O)NCCCC[C@@H]2NC(=O)[C@@H](Cc3ccccc3)NC(=O)[C@H](CC(=O)O)NC(=O)CNC(=O)[C@H](CCCNC(=N)N)NC2=O)C(=O)NCCCC[C@@H]2NC(=O)[C@@H](Cc3ccccc3)NC(=O)[C@H](CC(=O)O)NC(=O)CNC(=O)[C@H](CCCNC(=N)N)NC2=O)C(=O)NCCCC[C@@H]2NC(=O)[C@@H](Cc3ccccc3)NC(=O)[C@H](CC(=O)O)NC(=O)CNC(=O)[C@H](CCCNC(=N)N)NC2=O)NC(=O)[C@@H](Cc2ccccc2)NC(=O)[C@H](CC(=O)O)NC(=O)CNC1=O [indium-111 labelled]", "test system": "female BALB/c nude mice, SK-RC-52 xenograft, tumour", "setting": "0.5 µg, 2 h post injection, added: excess unlabelled DOTA-E-[c(RGDfK)]2 50 µg", "quantity": "radioactivity concentration", "result": "decreased"}
{"Structure (SMILES)": "[11CH3]c1ccc2nc(C3CCC3)n(-c3ccc4[nH]ncc4c3)c2n1", "assay": "extrapolated from mouse", "test system": "human female, heart wall", "quantity": "absorbed dose", "result": "5.4 µSv/MBq"}
{"note": "Repeated from above:"}
{"Structure (SMILES)": "N=C(N)NCCC[C@@H]1NC(=O)[C@H](CCCCNC(=O)CC[C@H](NC(=O)CC[C@H](NC(=O)CN2CCN(CC(=O)O)CCN(CC(=O)O)CCN(CC(=O)O)CC2)C(=O)N[C@@H](CCC(=O)NCCCC[C@@H]2NC(=O)[C@@H](Cc3ccccc3)NC(=O)[C@H](CC(=O)O)NC(=O)CNC(=O)[C@H](CCCNC(=N)N)NC2=O)C(=O)NCCCC[C@@H]2NC(=O)[C@@H](Cc3ccccc3)NC(=O)[C@H](CC(=O)O)NC(=O)CNC(=O)[C@H](CCCNC(=N)N)NC2=O)C(=O)NCCCC[C@@H]2NC(=O)[C@@H](Cc3ccccc3)NC(=O)[C@H](CC(=O)O)NC(=O)CNC(=O)[C@H](CCCNC(=N)N)NC2=O)NC(=O)[C@@H](Cc2ccccc2)NC(=O)[C@H](CC(=O)O)NC(=O)CNC1=O [indium-111 labelled]", "test system": "female BALB/c nude mice, SK-RC-52 xenograft, tumour", "setting": "0.5 µg, 2 h post injection, added: excess unlabelled DOTA-E-[c(RGDfK)]2 50 µg", "quantity": "radioactivity concentration", "result": "decreased"}
